Results gathered from unrelated publications.
Protocols differ between the studies behind these lines. Values joined by “and” are separate records of one study, mostly repeats; a detail may differ.
Target: Tyrosine-protein kinase FRK (FRK, Homo sapiens, UniProt P42685)

With `O=C(Nc1ccc(Oc2ncnc3[nH]cc(-c4ccccc4)c23)c(F)c1)c1c2n(n(-c3cc(F)ccc3F)c1=O)CCCC2` the inhibition was 70% (enzyme activity, inhibitor; 0.5 µM).
`C=CC(=O)Nc1cc(-c2nn(C3CCN(CCNC(=O)[C@H](C)CCC45CC6CC(CC(C6)C4)C5)CC3)c3ncnc(N)c23)ccc1Oc1ccccc1` gave an inhibition of 38.6% (inhibitor, KiNativ profiling; biochemical; 2 µM).
With `Nc1ncc2c(n1)-c1c([nH]c3ccc(C4=CCOCC4)cc13)CCC2` the remaining binding was 100% (binding, competition with immobilised ligand; 1 µM).
Under “activity vs control”, `CNC(=O)C[C@H](Cc1ccc(C#N)cc1)NC(=O)c1cc(-c2ccc(CN[C@H](C)c3ccc(C)cc3)o2)ccc1Cl` is recorded as 93% (enzyme activity, inhibitor; 1 µM).
The remaining activity of `COc1cc(Nc2nc(C)cc(-c3cnn4nc(OC)ccc34)n2)cc(C(F)(F)F)c1` is reported as 100% (inhibitor; 1 µM; baseline: control).
`C=CC(=O)Nc1cccc(-c2cnc3[nH]cc(C(=O)NC(C)(C)C)c3n2)c1` gave an inhibition of 10% and 9% (kinase activity; 0.1 µM).
`N[C@H]1CC[C@H](Nc2nccc(-c3cccnc3Oc3ccc(NC(=O)NC4CC4)c4ccccc34)n2)CC1`: “log2 LFQ intensity” 22.9 and 23.1 and 23 (kinobead competition pulldown; HEK293/HCT116 lysate mixture; 10 µM, 1 h, 4 °C; lower = stronger competition).
With `CC(C)=CC1OC(C)(C)C2C=C3C(=O)C(Cl)=CC(O)C3C3C(O)C4OC4C(=O)C132` (centres unmarked) the remaining binding was 94% (cell-free assay, competition with immobilised ligand; 10 µM).
For `NC(=O)[C@@H](O)C[C@H]1CCc2sc3ncnc(O[C@H]4CC[C@H](N5CCOCC5)CC4)c3c21`, the inhibition was 56% (enzyme activity, inhibitor, radiometric; 10 µM).
With `CNC(=O)C1CCN(c2cc(C)c(F)cc2NC(=O)c2ccc(-c3cc(O)ccc3C)c(C)c2)CC1` the remaining binding was 5.9% (binding, competition with immobilised ligand; 1 µM).
`O=C=[N][Ru-4]123([n]4c5ccc(O)cc5c5c6c(c7cc(F)c[n+]1c7c54)C(=O)NC6=O)[S+]1CC[S+]2CC[S+]3CC1` (centres unmarked) has a remaining activity of 73% (enzyme activity; 100 nM, human enzyme, added: 10 µM ATP; baseline: untreated).
For `COCC12C(=O)NC3C4(C(OC)CC1O)C1CC5(O)C(OC)C(O)C(OC(C)=O)(C1C5OC(=O)c1ccccc1)C3(O)C(OC)C24` (centres unmarked), the remaining activity was 98% and 93% (kinase activity, inhibitor, ProQinase kinase profiling; 25 µM; baseline: control).
`Cc1cnc2nc1Nc1cccc(c1)COC/C=C/COCc1cc(ccc1OCCN1CCOCC1)N2` gave a remaining binding of 93% (binding, competition with immobilised ligand; 0.1 µM).
For `Cc1ccc(-c2c(/C=C(\C#N)C(=O)NC(C)C)n(CCCO)c3ncnc(N)c23)cc1`, the remaining binding was 58% (cell-free assay, competition with immobilised ligand; 1 µM).
`Cc1cccc(O[C@H]2CCC[C@@H](C(C)CNCc3ccncc3)C2)c1` (relative stereo) has an inhibition of -2% (cell-free assay, inhibitor; 10 µM).
The remaining binding of `COc1c(Cl)cccc1Nc1c(-c2ccncc2C#C[C@@]2(C)CCCN2C(=O)/C=C/CN(C)C)[nH]c2c1C(=O)NCC2` is reported as 91% (cell-free assay, competition with immobilised ligand; 3 µM).
The inhibition of `CN1CCN(Cc2ccc(-c3ccc(CO[C@H]4CCC[C@@H]4NC(=O)c4cc(-c5cnn(C)c5)cnc4N)cc3)cc2)CC1` is reported as 8% (enzyme activity, inhibitor; 0.1 µM).

Repeated from above:
With `CC(C)=CC1OC(C)(C)C2C=C3C(=O)C(Cl)=CC(O)C3C3C(O)C4OC4C(=O)C132` (centres unmarked) the remaining binding was 94% (cell-free assay, competition with immobilised ligand; 10 µM).
For `NC(=O)[C@@H](O)C[C@H]1CCc2sc3ncnc(O[C@H]4CC[C@H](N5CCOCC5)CC4)c3c21`, the inhibition was 56% (enzyme activity, inhibitor, radiometric; 10 µM).
